Results pooled from the literature.
Every numbered part comes from another study and shows a few of its results, in no order. Changes are numbered by the printed parent chain.

Block 1
Target: Histone acetyltransferase KAT6A, both winged helices, GST fusion (KAT6A, Homo sapiens, UniProt Q92794, residues 1-181)
Method: protein binding microarray
Form: double-stranded DNA, one strand shown
Medium: in vitro
Concentration: not given
Setting: 8-mer, flanks averaged, mean of 2 arrays, mostly near background
Baseline: not given
Reading: higher = stronger binding
Target sequence (chain): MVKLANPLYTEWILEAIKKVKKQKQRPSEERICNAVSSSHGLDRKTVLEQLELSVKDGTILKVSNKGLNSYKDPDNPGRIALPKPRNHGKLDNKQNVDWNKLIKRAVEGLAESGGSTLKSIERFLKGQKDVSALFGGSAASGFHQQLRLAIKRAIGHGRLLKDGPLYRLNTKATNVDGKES
Oligonucleotide | E-score
ACCCATAT | -0.112
TCGAACAA | -0.0714
GATGTAGC | -0.0598
CCGCCAAA | 0.209
AAATCTCG | 0.0234
AAATGGTT | -0.0238
GAATGCCC | -0.0475
CCGTGAGG | 0.153
AAAGGCGG | 0.183
TCGGAGAA | 0.0706
AAAACCGT | 0.0238
ATAGGTGC | -0.141
CCAGTGGC | -0.166
ATAACTAT | -0.117
CAGTACAA | -0.13
ACGTGTTG | 0.0137
GGCTACCC | -0.0561
CTCACTCA | -0.185
AGTCGCAA | -0.00124
CCTCCGCC | 0.105
CCAGCCCG | -0.0379
ACGCCAAA | 0.023
ATTATATC | -0.102
CTAGTCTC | -0.211
GCCTGGCC | 0.0284

Block 2
Target: Hepatocyte nuclear factor 3-alpha (Foxa1, Mus musculus, UniProt P35582, residues 1-468, full length assumed)
Method: EMSA with sequencing
Form: double-stranded DNA, one strand shown
Medium: in vitro
Concentration: 10 and 20 nM
Setting: whole designed probe, mean of two concentrations, ends assumed
Baseline: negative control set to 0
Reading: higher = stronger binding
Shared flanks, not repeated: GTGAGCGGTGCCCATTGATGGGGAAC … TTTCACTGGGATCGTGGGGAC
Residues (chain): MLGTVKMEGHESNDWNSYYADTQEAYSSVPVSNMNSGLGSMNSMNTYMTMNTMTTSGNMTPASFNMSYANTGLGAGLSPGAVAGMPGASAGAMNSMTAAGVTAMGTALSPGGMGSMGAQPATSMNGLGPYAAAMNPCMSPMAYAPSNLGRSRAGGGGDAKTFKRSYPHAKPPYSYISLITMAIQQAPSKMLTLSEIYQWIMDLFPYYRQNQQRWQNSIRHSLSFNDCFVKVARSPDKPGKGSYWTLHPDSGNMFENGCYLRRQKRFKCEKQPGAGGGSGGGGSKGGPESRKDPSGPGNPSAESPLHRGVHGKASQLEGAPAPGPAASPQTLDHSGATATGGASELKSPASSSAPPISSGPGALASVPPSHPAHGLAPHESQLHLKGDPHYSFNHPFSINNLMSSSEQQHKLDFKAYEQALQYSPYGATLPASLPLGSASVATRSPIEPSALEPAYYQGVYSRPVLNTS
Oligonucleotide | normalised bound fraction
TTTCCAGCCCTTAGTTTCTGGCATTTAACCTGACTCTGGTCCCTGAATGGCATGGGAGTGCTTTCAACCACAGGTTTCCACATTCATGCCACTTGTTTGCTTTTTGATCTACAGAGCTGACTCATTCATCTTTATTTGCTTTGTGTTTCCAATGGAGAAAGAGCTTGGGAAGGGAGGATCCTAATTGTCTAAA | 0.519 ratio
TTACTTTGATTCTATTTTCAGATACTAGACCAAGCCATAATAACTAAACAAGTATCTCAACAAACATGGAGTTGTTCTTAAAATAAATTCCTTGTTTACACAGCGCTTTTCTCGAAAATAACTCCAAATGCTTTACAAAGACAAAATTCCACCATTAACGCTTTGATATATAGCAGTGAGAATATGTCACACC | 0.454 ratio
GATTAAATATAGGAAAGTATGTATAAACTTACGTGAATATGCCCTGTTACATTCTACAAATTAAAAGTTGATTAGCTTTCTTGTGATCCCCAAAGTAATCTTAAAAATGTATAAGCCTGAAATATTATCAATTAGAAAATATTTGGAGAAATTGCTTCTTAAAATATGGTAGAATATTTTAAGAAGCATTGTT | 0.00383 ratio
TAATTAAGACATATCTAAAAGTATCAACAGTATCGGGAAGAAAACATGAAGTTCACATGATACCCCAATGCTTCTAGAAAAGTCACAAATGAGTAATCTAGGAATATTATAACTGATATGTGTGATTCAGATAAAGACTAGGGTGGTACATGAAAAATGGCTTAAGTCAAGGGTGTAATTGAGACTAGATCAA | -0.0161 ratio
ATCTTCCCCCTCTTCCTTGCCCCACCAGCTCACCTTCCCGGGTTATTTGCAGATAGGAAAATAAATAAAGCCGGCATTCGTTAACCCTCTTCTGGCGCAAACTGCTGTTTGCTCTGGATGAATCATGGTCCTTTGGCGACGCCAGGCTCCGGGAGAGCAAAGCACCGTGGGTCCCGAGAATCGGCTGGTGGCC | 0.337 ratio
TATTTACTGACCTAAACTTGGCTGTAACAGCTCTTACTCCCTCAGAGGAGGTACATGAGAGTTAAATGAGGTAATGAATTGCGCAGCCATCTGTAATCTTGACGAGGCTTTGTAATCTGAACTGGGACAACACAAACATTCGCTAGAATAATTCTCCCACTCCTTGAAAGAGTACTCTTCCCTTACCCCACCT | 0.111 ratio
TTAACTTAGGTAATTGAATATTTAATTTATTGATATTCTTAAAATGTTTCTTTCCAAACAGACTACTTTTTTTCAGTTTGATCTTCTTTCAAATGTAAACATGCAGTTTTTTTGTTTCTGAATTTTTATATTAATTGCAGTTTATTAATCAATATTGATAAGCATTTCATGGGTATCAAGACCATTTGATTTG | 0.367 ratio
ATCTTCCCCCTCTTCCTTGCCCCACCAGCTCACCTTCCCGGGTATATTGGAGATAGGAAATTAATATAAGCCGGCATTCGTTAACCCTCTTCTGGCGCAAACTGCCAGAGCAAACAGATGAATCATGGTCCTTTGGCGACGCCAGGCTCCGGGAGAGCAAAGCACCGTGTCAGGGCCATGATCCGGGGTGGCC | 0.155 ratio

Block 3
Target: CCNE2, cyclin fold, Cln2 fusion (human)
Method: yeast growth competition, sequencing
Medium: yeast
Setting: strong parent motif
Baseline: not given
Reading: higher = stronger binding
Parent: DTL docking peptide (human); PSSMRKICTYFHR; partner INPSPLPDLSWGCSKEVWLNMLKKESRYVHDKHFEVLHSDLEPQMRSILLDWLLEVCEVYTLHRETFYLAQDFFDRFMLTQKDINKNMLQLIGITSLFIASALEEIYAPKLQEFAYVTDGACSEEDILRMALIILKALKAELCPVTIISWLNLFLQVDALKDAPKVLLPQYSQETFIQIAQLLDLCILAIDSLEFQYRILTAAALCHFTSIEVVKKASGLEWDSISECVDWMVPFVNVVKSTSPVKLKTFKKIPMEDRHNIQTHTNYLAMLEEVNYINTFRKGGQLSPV
Variant | normalised enrichment score
PSSMRKICTYAHR [F11A] | 0.535
ASSMRKICTYFHR [P1A] | 0.579
PSSMAKICTYFHR [R5A] | 0.921
PSSMRAICTYFHR [K6A] | 1.12
PSSMRKICTYFHA [R13A] | 0.893
PSSMRKICAYFHR [T9A] | 0.963

Block 4
Target: Sal-like protein 4, full length isoform B (SALL4, Homo sapiens, UniProt Q9UJQ4-2, residues 1-616)
Method: universal PBM
Form: double-stranded DNA, one strand shown
Medium: in vitro
Concentration: not given
Setting: 8-mer, flanks averaged, mean of replicates
Reading: higher = stronger binding
Construct (chain): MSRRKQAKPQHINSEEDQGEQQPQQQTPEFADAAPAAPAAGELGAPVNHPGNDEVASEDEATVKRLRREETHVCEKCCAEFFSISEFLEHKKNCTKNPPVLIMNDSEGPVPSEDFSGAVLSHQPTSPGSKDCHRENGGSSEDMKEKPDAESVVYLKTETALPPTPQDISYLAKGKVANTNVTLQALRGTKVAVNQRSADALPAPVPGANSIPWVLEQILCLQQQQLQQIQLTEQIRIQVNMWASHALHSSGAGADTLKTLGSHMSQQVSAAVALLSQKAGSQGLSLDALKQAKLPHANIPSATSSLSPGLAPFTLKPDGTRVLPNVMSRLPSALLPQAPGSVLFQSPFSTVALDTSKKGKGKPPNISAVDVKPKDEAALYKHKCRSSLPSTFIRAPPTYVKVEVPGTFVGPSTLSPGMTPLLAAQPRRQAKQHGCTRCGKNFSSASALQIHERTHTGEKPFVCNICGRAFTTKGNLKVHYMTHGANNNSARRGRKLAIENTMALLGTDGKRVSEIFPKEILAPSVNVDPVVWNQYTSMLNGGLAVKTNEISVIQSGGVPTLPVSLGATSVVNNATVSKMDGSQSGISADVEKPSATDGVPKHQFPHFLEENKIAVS
Oligonucleotide | E-score
ACCACGGA | -0.331
GAAGAGGA | -0.152
CTCAGAGC | -0.33
ATACGCAC | 0.0888
AAACATCC | -0.0538
AAGATTTC | 0.0885
CACAAATA | 0.318
ACGGAGAT | -0.189
ACTTTCTG | 0.0358
AAGGATTG | 0.0908
AGTCACGG | -0.0846
ACGACTCT | 0.00459
CAAAGCCC | -0.256
TTAGAAAA | 0.232
AGTGGACC | -0.158
GGAATCCC | -0.285
CGACCCGC | -0.273

Block 5
Target: RING finger protein unkempt homolog, zinc fingers 1-6, GST-SBP tag (UNK, Homo sapiens, UniProt Q9C0B0, residues 30-357)
Method: RNA Bind-n-Seq
Form: RNA
Medium: in vitro
Concentration: not given
Setting: RNA with constant flanks, human and mouse sites, ends assumed
Baseline: input RNA pool
Reading: higher = stronger binding
Shared flanks, not repeated: GGGAGUUCUACAGUCCGACGAUC … CAACAGAGGAUUGAGCAUCA
Residues (chain): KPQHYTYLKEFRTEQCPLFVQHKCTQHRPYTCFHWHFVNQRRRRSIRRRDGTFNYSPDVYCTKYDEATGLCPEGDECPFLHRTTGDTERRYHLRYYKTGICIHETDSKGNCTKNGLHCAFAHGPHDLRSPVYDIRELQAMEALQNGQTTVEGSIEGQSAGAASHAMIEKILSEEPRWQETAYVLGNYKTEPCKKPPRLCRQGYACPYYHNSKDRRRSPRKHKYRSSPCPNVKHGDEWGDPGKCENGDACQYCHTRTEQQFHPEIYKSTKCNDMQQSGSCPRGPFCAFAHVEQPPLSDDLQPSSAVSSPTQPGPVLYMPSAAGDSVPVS
Oligonucleotide | bound/input enrichment
AAGGAUGCUUUUGAUAAAGGUUCCCUUUUUGGAGGGUCUGUAAAAUUGGCUCUUGCAAGCUUAGGAUAUGAAAAGAGCUGUGUGUUGUUCAAUUGUGCUGCCUUAGCUAGCCAGAUUGCA | 1.04 ratio
ACUUUUGCAGAUGAGCUGGUGGAGCUCAGCACAGCCCUGGAGCACCAGGAGUACAUUACUUUUCUUGAAGACCUCAAGAGUUUUGUCAAGAGCCAGUAGAGCAGACAGAUGCUGAAAGCC | 0.245 ratio
UAUGCUUUGGACACACUUUAUAAUAUAAUAUCUAAUGACGAAGAGGAAGAACUAGAAGAAAAUUCUACAAGACAGAGUGAGGAUUUGGGAAGCCAGUUUACAGAAAUUUUCAUUAAGCAG | 0.864 ratio
GUUUUUUGUUGUUGUUGUUGUUGUUUUUUUUUUUUGAGGUGGGGAAUUUCUGUUUAUUUCAUUUUGUAGAGCUGGACAAUUGAGUCCAGGGCCUCUCAAAUGCUAGGCAAAACUCUGUCA | 1.13 ratio
UAAUAAAAACUGGAGAAAUAGGAAUUUGUGAACUCCUAAAAUUGUAGCAACUUUGAAAGGUUAGUGUUUUAUUUACCUGACAAAUGGAAGUUAUAGAAGUCUAAUAAUGUUAAGCACCAG | 1.67 ratio
AACCUGCAGGAACAGUACCUGGAAGCCCACGACCGUCUCCUUGCAGAGACCCACUACCAGCUGGGCUUGGCUUAUGGGUACAACUCUCAGUAUGAUGAGGCAGUGGCACAGUUCAGCAAA | 0.062 ratio
UGUUGUGACCCAUUUAACAUACACAAGAAAUUAGCCAAAAAAAAUUUGCAUGUAAUUGACUUAGAUGAUGCCACUUUUCUGAGUGCUAAAUUUGGAAGACAGCUUGUACCUGGUUGGAAG | 12.8 ratio
UGCUGCUGAAGGGUGUGUCUUGGGGCACACAUCCACUUUGAUUUUGCUUUACUCUUCCAGAAUAGUUGCUGCGUAAUAGAAAUUACAUUUUUCUACUUGAUGGGUCAUCUUAAAUCUGGU | 1.24 ratio
UACAUUUACAAAGCCAUUUUACAUGCAUUAAAAGAGGGCUACAAUGUGUUUUACAAAUACUAGCACUUUUUUUUCCUGUUAUGUACCUAGUGUUAGAGGGUCAGAAUAAUCUUUCUGCUU | 0.288 ratio
GAAAGACCAGAUCUCAGGGAAAAGGUCAUUAAAGGAGCAGAGAUUCUUGAAGUGUUGCACAGUCUUCCAGCAGUUCGGCAGUAUCUGUUUUCACUCUAUGAAUGCCGUUACUCUGUUUUC | 0.257 ratio
GGUACUUUUAUAAACAUUAGUGUAUUUAUUUCCUAUGUGUUAAUAUGAAGAUCAGAAAUUAUUUUUUGCACUUUGGCAUAAAUACUUUUCAAUAUCUGAUUUGUUCUCUGGAUAAAUUAG | 8 ratio

Some of these lines once more (block 1):
Oligonucleotide | E-score
AAATGGTT | -0.0238
GATGTAGC | -0.0598
GAATGCCC | -0.0475
ATAACTAT | -0.117
AGTCGCAA | -0.00124
ACCCATAT | -0.112
